Experimental data collected from several papers.
Lines come from different studies, so protocols differ. Values joined by “and” are separate records of one study, mostly repeats; a detail may differ. ± gives the spread as reported.

| Compound | target or system | test | system | setting | how to read | quantity | result |
| --- | --- | --- | --- | --- | --- | --- | --- |
| CN[C@@](C)(C[18F])C(=O)O | – | – | SCID mouse SK-OV-3 xenograft, lung | 30 min, post injection | – | tissue uptake | 1.9 ± 0.3 %ID/g |
| CC(C)c1nc(CN(C)C(=O)N[C@H](C(=O)N[C@@H](Cc2ccccc2)C[C@H](O)[C@H](Cc2ccccc2)NC(=O)OCc2cncs2)C(C)C)cs1 | – | – | healthy human volunteers, plasma | oral, dose not given, alone, pravastatin interaction study | – | AUC(0-24) | 4.42 µg·h/mL |
| COc1ccc2c(c1)[C@]13CCCC[C@@H]1[C@H](C2)N(C)CC3 | – | – | Wistar rat, both sexes, plasma | oral, 5 mg/kg, 2 h after pretreatment, added: single TCE 400 mg/kg | – | Cmax | 0.0767 ± 0.00995 µg/mL |
| O=c1[nH]c(Cc2ccccn2)nc2c1cnn2C1CCOCC1 | – | – | healthy men, extensive metabolizers, plasma | oral, 200 mg single dose, tablet, median | – | Tmax | 37.8 min |
| C[N+](C)(C)[C@@H](Cc1c[nH]c(=S)[nH]1)C(=O)[O-] | – | – | rat treated with 1,25-dihydroxyvitamin D3, muscle | intravenous | reference: untreated control rats | decrease in tissue partition coefficient | 47.3% |
| CN1COCN(Cc2cnc(Cl)s2)/C1=N\[N+](=O)[O-] | Folsomia candida | reproduction, OECD 232 | LUFA 2.2 soil | 28 days | – | EC20 | 0.1 mg/kg dry soil |
| [123I]c1cncc(OC[C@@H]2CCN2)c1 | – | SPECT | human, hippocampus | intravenous bolus plus infusion, 7.8 mCi | reference: tissue over plasma | tissue/plasma ratio | 22.7 |
| CC(=O)N[C@@H](Cc1ccc(O)cc1)C(=O)N[C@@H](C)C(=O)N[C@@H](CCC(=O)O)C(=O)N[C@@H](C)C(=O)N[C@@H](C)C(=O)N[C@@H](CCCCN)C(=O)N[C@@H](C)C(=O)N[C@@H](C)C(=O)N[C@@H](CCC(=O)O)C(=O)N[C@@H](C)C(=O)N[C@@H](C)C(=O)N[C@@H](CCCCN)C(=O)N[C@@H](C)C(=O)N[C@@H](C)C(=O)N[C@@H](CCC(=O)O)C(=O)N[C@@H](C)C(=O)N[C@@H](C)C(=O)N[C@@H](CCCCN)C(=O)N[C@@H](C)C(=O)N[C@@H](C)C(=O)N[C@@H](CCC(=O)O)C(=O)N[C@@H](C)C(=O)N[C@@H](C)C(=O)N[C@@H](CCCCN)C(=O)N[C@@H](C)C(=O)N[C@@H](Cc1ccccc1)C(N)=O | – | CD at 222 nm | potassium phosphate buffer | 40 µM, pH 7.0, no lipid | – | mean residue ellipticity | -20100 deg cm² dmol⁻¹ |
| O=[N+]([O-])NC1=NCCN1Cc1ccc(Cl)nc1 | Folsomia candida | reproduction, OECD 232 | LUFA 2.2 soil | 28 days | – | EC20 | 0.15 mg/kg dry soil |
| CC(C)c1ccc2c(c1)CC[C@H]1[C@](C)(CN)CCC[C@]21C | HFK normal keratinocytes | cell viability, MTS | – | 72 h | – | IC50 | 8.4 ± 0.7 µM |
| CCCCCCCCCC(=O)N[C@@H](Cc1c[nH]c2ccccc12)C(=O)N[C@H](CC(N)=O)C(=O)N[C@@H](CC(=O)O)C(=O)N[C@@H]1C(=O)NCC(=O)N[C@@H](CCCN)C(=O)N[C@@H](CC(=O)O)C(=O)N[C@H](C)C(=O)N[C@@H](CC(=O)O)C(=O)NCC(=O)N[C@H](CO)C(=O)N[C@@H]([C@H](C)CC(=O)O)C(=O)N[C@@H](CC(=O)c2ccccc2N)C(=O)O[C@@H]1C | – | – | male Wistar rat, skin tissue | subcutaneous, 50 mg/kg | – | AUC(0-inf) | 114 ± 21.8 µg·h/mL |
| CSCC[C@@H]1NC(=O)[C@H](CC(=O)O)NC(=O)CNC(=O)[C@H](CCCNC(=N)N)NC(=O)[C@H](C)NC(=O)[C@H](CCC(=O)O)NC(=O)[C@H](CCCNC(=N)N)NC(=O)[C@@H]2CSSC[C@@H]3NC(=O)[C@H](CO)NC(=O)[C@H]([C@@H](C)O)NC(=O)[C@@H]4CCCN4C(=O)[C@H](C)NC(=O)[C@H](Cc4c[nH]c5ccccc45)NC(=O)[C@H](CC(=O)O)NC(=O)CNC(=O)[C@H](CCCNC(=N)N)NC(=O)CNC(=O)[C@H](CCC(N)=O)NC(=O)[C@@H]4CCCN4C(=O)[C@@H](NC(=O)CNC(=O)C(C)F)CSSC[C@H](NC(=O)CNC(=O)[C@H](C)NC(=O)[C@H](CC(C)C)NC(=O)[C@H](CSSC[C@@H](C(=O)NCC(N)=O)NC(=O)[C@H]([C@@H](C)O)NC(=O)[C@H](CCCNC(=N)N)NC(=O)[C@@H]4CCCN4C1=O)NC(=O)[C@H](CC(=O)O)NC(=O)[C@H](CO)NC(=O)[C@H](CC(=O)O)NC(=O)[C@H](CCC(N)=O)NC(=O)[C@H](CO)NC3=O)C(=O)N[C@@H](C(C)C)C(=O)N2 (stereo partly drawn) [fluorine-18 labelled] | – | – | nude mice, U-87 MG xenograft, blood | intravenous, 2.5 h, added: cyclo(RGDyK) 330 µg coinjected | – | tissue uptake | 0.3 ± 0.09 %ID/g |
| O=C1Nc2ccc(Cl)cc2[C@@](C#CC2CC2)(C(F)(F)F)O1 | – | LC-MS/MS | female hu-HSC-RAG mouse, brain | dose not given, 1 day after 10-day dosing | – | tissue concentration | < 35 ng/g |
| Cc1sc2c(c1C)C(c1ccc(Cl)cc1)=N[C@@H](CC(=O)OC(C)(C)C)c1nnc(C)n1-2 | – | LC-MS | Ringer's solution | 50 ng/mL, time not given, glass vessel, glass vial | – | recovery vs nominal | 62.5% and 37% |
| Cc1ccc(Nc2nccc(N(C)c3ccc4c(C)n(C)nc4c3)n2)cc1S(N)(=O)=O | – | – | patients, plasma | oral, 600 mg, 24 h, with food, geometric mean, added: omeprazole | – | Cmin | 22.9 µg/mL |
| CN1CC[C@]23c4c5ccc(O)c4O[C@H]2[C@@H](O[C@@H]2O[C@H](C(=O)O)[C@@H](O)[C@H](O)[C@H]2O)C=C[C@H]3[C@H]1C5 | MDCK II | – | – | 1.0 µg/mL, 100 min, Hanks buffer | – | Papp | 29.9 ± 3.4 nm/s |
| C[C@H]1CNCCc2ccc(Cl)cc21 | – | – | male Sprague-Dawley rat, plasma | subcutaneous, pimavanserin 0.5 + lorcaserin 0.5 mg/kg, pimavanserin 15 min earlier | – | CL/F | 17.9 ± 1.29 L/h/kg |
| CC(C)C[C@H](NC(=O)[C@H](CCC(=O)O)NC(=O)[C@H](CCC(=O)O)NC(=O)[C@H](CC(=O)O)NC(=O)[C@H](CCC(=O)O)NC(=O)[C@H](CCC(=O)O)NC(=O)[C@H](CCC(=O)O)NC(=O)[C@@H](N)CC(=O)O)C(=O)O | – | – | rat, plasma | subcutaneous, 11.0 mg/kg, 15 min | – | concentration | 3.09 µg/mL |

For quick reference, copied from above:
| Compound | target or system | test | system | setting | how to read | quantity | result |
| --- | --- | --- | --- | --- | --- | --- | --- |
| CC(=O)N[C@@H](Cc1ccc(O)cc1)C(=O)N[C@@H](C)C(=O)N[C@@H](CCC(=O)O)C(=O)N[C@@H](C)C(=O)N[C@@H](C)C(=O)N[C@@H](CCCCN)C(=O)N[C@@H](C)C(=O)N[C@@H](C)C(=O)N[C@@H](CCC(=O)O)C(=O)N[C@@H](C)C(=O)N[C@@H](C)C(=O)N[C@@H](CCCCN)C(=O)N[C@@H](C)C(=O)N[C@@H](C)C(=O)N[C@@H](CCC(=O)O)C(=O)N[C@@H](C)C(=O)N[C@@H](C)C(=O)N[C@@H](CCCCN)C(=O)N[C@@H](C)C(=O)N[C@@H](C)C(=O)N[C@@H](CCC(=O)O)C(=O)N[C@@H](C)C(=O)N[C@@H](C)C(=O)N[C@@H](CCCCN)C(=O)N[C@@H](C)C(=O)N[C@@H](Cc1ccccc1)C(N)=O | – | CD at 222 nm | potassium phosphate buffer | 40 µM, pH 7.0, no lipid | – | mean residue ellipticity | -20100 deg cm² dmol⁻¹ |
